Assay results gathered from unrelated publications.
Each line is one published result; not all experiments were run side by side.
SLC47A2: Multidrug and toxin extrusion protein 2 (SLC47A2, Homo sapiens, UniProt Q86VL8)
Chain of UniProt Q86VL8 (whole entry, looked up): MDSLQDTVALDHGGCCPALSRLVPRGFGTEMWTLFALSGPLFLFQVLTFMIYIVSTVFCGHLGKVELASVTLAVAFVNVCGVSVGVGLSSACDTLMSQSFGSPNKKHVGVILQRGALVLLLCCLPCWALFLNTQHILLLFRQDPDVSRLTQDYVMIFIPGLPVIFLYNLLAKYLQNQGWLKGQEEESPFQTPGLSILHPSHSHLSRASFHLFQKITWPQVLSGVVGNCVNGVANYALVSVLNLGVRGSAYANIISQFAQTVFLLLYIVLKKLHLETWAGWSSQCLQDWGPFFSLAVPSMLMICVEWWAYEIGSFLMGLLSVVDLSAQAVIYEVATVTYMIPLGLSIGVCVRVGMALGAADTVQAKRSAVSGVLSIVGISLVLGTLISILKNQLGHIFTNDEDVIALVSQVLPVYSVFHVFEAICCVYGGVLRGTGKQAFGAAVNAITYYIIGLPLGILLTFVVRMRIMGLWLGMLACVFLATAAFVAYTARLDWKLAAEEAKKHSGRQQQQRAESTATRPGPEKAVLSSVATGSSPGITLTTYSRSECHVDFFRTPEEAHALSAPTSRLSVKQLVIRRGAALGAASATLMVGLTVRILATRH
Tumor necrosis factor receptor superfamily member 9/Nectin-4: Tumor necrosis factor receptor superfamily member 9/Nectin-4 (Homo sapiens, UniProt Q07011+Q96NY8)
Chain of UniProt Q07011 (whole entry, looked up): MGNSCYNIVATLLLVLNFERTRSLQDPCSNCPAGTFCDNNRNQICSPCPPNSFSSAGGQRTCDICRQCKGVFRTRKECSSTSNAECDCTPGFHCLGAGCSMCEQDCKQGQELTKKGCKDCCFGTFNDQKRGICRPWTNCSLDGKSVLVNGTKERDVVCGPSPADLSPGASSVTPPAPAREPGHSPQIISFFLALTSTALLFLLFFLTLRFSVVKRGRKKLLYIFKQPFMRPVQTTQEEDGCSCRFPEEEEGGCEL
Chain of UniProt Q96NY8 (whole entry, looked up): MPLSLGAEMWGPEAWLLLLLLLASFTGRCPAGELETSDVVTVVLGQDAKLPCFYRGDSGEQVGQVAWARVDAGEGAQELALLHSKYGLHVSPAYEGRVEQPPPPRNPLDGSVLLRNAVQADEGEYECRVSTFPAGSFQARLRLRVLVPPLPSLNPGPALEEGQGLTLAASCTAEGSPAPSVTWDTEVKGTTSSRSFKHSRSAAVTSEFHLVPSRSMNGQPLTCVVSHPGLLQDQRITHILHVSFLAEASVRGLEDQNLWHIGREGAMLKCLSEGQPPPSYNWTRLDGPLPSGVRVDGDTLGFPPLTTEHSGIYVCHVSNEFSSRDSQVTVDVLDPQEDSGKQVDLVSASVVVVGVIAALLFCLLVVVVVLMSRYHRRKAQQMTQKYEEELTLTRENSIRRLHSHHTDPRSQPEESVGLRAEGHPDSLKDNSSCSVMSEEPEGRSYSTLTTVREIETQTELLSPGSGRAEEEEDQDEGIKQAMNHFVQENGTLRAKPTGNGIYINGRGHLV
ABCG2: Broad substrate specificity ATP-binding cassette transporter ABCG2 (ABCG2, Homo sapiens, UniProt Q9UNQ0)
Chain of UniProt Q9UNQ0 (whole entry, looked up): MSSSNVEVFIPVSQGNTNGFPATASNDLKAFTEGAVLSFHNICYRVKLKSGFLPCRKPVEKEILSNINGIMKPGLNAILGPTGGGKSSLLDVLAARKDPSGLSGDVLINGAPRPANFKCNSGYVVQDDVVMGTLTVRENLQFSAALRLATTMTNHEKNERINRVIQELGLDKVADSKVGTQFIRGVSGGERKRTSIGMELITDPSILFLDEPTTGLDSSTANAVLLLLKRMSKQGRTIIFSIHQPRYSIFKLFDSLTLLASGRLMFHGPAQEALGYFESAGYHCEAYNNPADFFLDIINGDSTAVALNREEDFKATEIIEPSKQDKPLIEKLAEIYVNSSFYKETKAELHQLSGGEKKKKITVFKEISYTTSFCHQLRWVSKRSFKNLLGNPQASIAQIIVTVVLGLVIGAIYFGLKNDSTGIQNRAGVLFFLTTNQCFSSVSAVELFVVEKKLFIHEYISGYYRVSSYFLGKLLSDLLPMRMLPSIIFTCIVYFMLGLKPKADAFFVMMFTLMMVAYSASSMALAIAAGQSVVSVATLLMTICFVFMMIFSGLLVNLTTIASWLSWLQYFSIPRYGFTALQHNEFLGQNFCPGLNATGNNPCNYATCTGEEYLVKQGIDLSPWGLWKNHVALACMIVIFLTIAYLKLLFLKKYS
Chain of UniProt Q9UBE8 (whole entry, looked up): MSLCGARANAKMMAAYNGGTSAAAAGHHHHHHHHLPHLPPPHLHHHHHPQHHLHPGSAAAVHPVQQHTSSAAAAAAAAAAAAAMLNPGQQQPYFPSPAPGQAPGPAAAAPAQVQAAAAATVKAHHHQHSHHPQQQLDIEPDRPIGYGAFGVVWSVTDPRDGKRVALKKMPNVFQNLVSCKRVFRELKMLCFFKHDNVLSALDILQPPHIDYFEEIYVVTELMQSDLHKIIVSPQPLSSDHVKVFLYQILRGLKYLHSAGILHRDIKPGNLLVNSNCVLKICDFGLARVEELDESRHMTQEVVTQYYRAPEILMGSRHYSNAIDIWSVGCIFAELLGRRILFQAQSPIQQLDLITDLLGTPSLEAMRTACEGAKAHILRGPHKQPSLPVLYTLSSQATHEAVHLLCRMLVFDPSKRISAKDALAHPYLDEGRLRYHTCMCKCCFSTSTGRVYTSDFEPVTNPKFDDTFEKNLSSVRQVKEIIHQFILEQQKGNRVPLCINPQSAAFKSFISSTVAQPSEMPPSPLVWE
Chain of UniProt Q9NPD5 (whole entry, looked up): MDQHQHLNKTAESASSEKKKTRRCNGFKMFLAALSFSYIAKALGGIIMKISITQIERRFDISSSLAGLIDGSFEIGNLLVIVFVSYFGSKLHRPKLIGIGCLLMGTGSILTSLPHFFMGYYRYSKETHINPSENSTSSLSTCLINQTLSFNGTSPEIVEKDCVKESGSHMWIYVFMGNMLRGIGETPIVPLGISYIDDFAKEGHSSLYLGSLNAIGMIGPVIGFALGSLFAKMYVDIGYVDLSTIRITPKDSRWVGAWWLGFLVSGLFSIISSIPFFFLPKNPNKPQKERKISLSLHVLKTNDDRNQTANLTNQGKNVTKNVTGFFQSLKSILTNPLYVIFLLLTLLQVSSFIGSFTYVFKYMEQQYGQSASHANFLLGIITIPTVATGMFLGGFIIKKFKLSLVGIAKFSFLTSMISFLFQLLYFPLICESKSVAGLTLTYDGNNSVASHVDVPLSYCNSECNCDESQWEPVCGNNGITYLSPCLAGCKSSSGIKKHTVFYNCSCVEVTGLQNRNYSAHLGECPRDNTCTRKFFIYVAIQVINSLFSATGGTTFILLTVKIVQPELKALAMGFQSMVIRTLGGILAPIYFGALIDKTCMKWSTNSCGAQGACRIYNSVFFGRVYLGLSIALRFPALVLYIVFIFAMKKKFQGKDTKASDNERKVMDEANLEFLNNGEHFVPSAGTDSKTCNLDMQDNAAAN
Chain of UniProt Q05421 (whole entry, looked up): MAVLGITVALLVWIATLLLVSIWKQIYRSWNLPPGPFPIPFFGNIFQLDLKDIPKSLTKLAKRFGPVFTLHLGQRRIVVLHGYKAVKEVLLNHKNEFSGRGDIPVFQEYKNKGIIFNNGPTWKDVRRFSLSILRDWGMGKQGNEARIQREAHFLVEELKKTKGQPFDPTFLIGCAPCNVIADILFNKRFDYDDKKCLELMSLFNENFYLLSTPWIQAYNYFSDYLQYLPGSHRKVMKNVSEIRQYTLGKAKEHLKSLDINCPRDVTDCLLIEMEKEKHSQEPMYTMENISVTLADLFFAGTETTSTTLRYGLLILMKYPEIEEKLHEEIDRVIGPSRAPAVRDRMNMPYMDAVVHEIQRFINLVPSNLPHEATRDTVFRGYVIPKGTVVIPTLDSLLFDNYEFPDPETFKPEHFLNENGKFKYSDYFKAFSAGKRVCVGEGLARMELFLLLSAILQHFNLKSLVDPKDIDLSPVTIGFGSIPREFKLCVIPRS

SMILES | tested on | assay | system | setting | how to read | endpoint | result
C=CC1CO1 (stereo not shown) | Cytochrome P450 2E1 (Cyp2e1, Mus musculus, UniProt Q05421) | 4-nitrophenol hydroxylation, inhibitor | B6C3F1 mouse, liver microsomes | added: 4-nitrophenol 50 µM | – | IC50 | 54 µM
CN(C)C(=O)COC(=O)Cc1ccc(OC(=O)c2ccc(NC(=N)N)cc2)cc1 | Solute carrier organic anion transporter family member 1B3 (SLCO1B3, Homo sapiens, UniProt Q9NPD5) | transport, inhibitor | transiently transfected cells | 100 µM, 10 (unit not given), added: CCK-8 | – | inhibition | 83.4%
CC(Nc1nc(N2CCN(C)CC2)nc2ccccc12)c1ccccc1 (stereo not shown) | Vero-E6 | CellTiter-Glo ATP | – | 72 h, second round 5-point | reference: DMSO 0%, hyamine -100%, more negative, more toxic | maximum response | 0.252%
COc1ccc2cc1Oc1ccc(cc1)C[C@H]1c3cc(c(OC)cc3CCN1C)Oc1c(OC)c(OC)cc3c1[C@H](C2)N(C)CC3 | SLC47A2 | transport activity, inhibitor | – | 10 µM, 10 (unit not given), added: thiamine | – | inhibition | 27%
CC1(C)C(/C=C(\Cl)C(F)(F)F)C1C(=O)OC(C#N)c1cccc(Oc2ccccc2)c1 (stereo not shown) | human CYP2C8 | IVIVE from expressed enzymes | human, liver, in vivo scaled | age-specific | – | enzyme contribution to CLint | 0.09%
C[C@H]1CN(c2n[nH]c3nc(N[C@H]4CC[C@H](NS(=O)(=O)CCC(F)(F)F)CC4)ncc23)CCO1 | Serine/threonine-protein kinase NLK (NLK, Homo sapiens, UniProt Q9UBE8) | competitor, Kinobeads competition | HEK293, K562, placenta extract | – | – | Hill slope | 0.81
CCCC[C@@H]1NC(=O)[C@H](Cc2ccc(O)cc2)NC(=O)[C@@H]2CCCN2C(=O)[C@H](CC(=O)O)NC(=O)[C@H](C)NC(=O)[C@H](Cc2ccccc2)NC(=O)[C@@H]2CSCCC(=O)N3CN(CN(C3)C(=O)CCSC[C@@H](C(=O)N[C@@H](CNC(=O)CCc3cn(CCOCCOCCOCCN(CCOCCOCCOCCC(=O)N[C@H]4CSCCC(=O)N5CN6CN(C5)C(=O)CCSC[C@H](NC(=O)[C@@H](CC(=O)O)NC(=O)[C@H](Cc5cccc7ccccc57)NC(=O)[C@@H]5CCCN5C4=O)C(=O)N[C@@H](CCSC)C(=O)N[C@@H](CCCCNC(=N)N)C(=O)N[C@@H](CC(=O)O)C(=O)N[C@@H](Cc4c[nH]c5ccccc45)C(=O)N[C@@H](CO)C(=O)N[C@@H]([C@@H](C)O)C(=O)N4CCC[C@H]4C(=O)N4C[C@H](O)C[C@H]4C(=O)N[C@@H](Cc4c[nH]c5ccccc45)C(=O)N[C@H](C(N)=O)CSCCC6=O)CCOCCOCCOCCn4cc(CCC(=O)NC[C@H](NC(=O)[C@@H]5CSCCC(=O)N6CN7CN(C6)C(=O)CCSC[C@H](NC(=O)[C@H](Cc6ccc(O)cc6)NC(=O)[C@@H]6CCCN6C(=O)[C@@H](C)NC(=O)[C@H](CCC(=O)O)NC(=O)[C@@H]6CCCN6C(=O)[C@H](CC(C)(C)C)NC(=O)[C@@H](NC(C)=O)CSCCC7=O)C(=O)N[C@@H](Cc6ccccc6)C(=O)N[C@@H](C)C(=O)N[C@@H](CC(=O)O)C(=O)N6CCC[C@H]6C(=O)N[C@@H](Cc6ccc(O)cc6)C(=O)N[C@@H](CCCC)C(=O)N5)C(N)=O)nn4)nn3)C(N)=O)NC1=O)C(=O)CCSC[C@H](NC(C)=O)C(=O)N[C@@H](CC(C)(C)C)C(=O)N1CCC[C@H]1C(=O)N[C@@H](CCC(=O)O)C(=O)N[C@H](C)C(=O)N1CCC[C@H]1C(=O)N[C@@H](Cc1ccc(O)cc1)C(=O)N2 | Tumor necrosis factor receptor superfamily member 9/Nectin-4 | reporter gene, agonist, luciferase reporter | CD137 Jurkat reporter with HT-1376 | 6 h, geometric mean | reference: wells without compound | Emax | 59 fold
Cc1cc2c(F)c(Oc3ncnn4cc(OC[C@@H](C)O)c(C)c34)ccc2[nH]1 | ABCG2 | inhibitor | – | concentration not given, 1 h | – | inhibition | 68%
CCCCN(CCCC)CCCNC(=O)c1cc(-c2ccc(Cl)s2)nc2ccccc12 | Vero-E6 | CellTiter-Glo ATP | – | 72 h, retest 8-point duplicates | reference: DMSO 0%, hyamine -100%, more negative, more toxic | maximum response | -12.5%
O=S1OCC2C(CO1)C1(Cl)C(Cl)=C(Cl)C2(Cl)C1(Cl)Cl (stereo not shown) | ABCG2 | inhibition, inhibitor | – | 0.03 to 100 µM, added: sulfasalazine 10 µM | – | BCRP ATPase activity | inhibited
CCCCCCCCc1ccc(CCC(N)(CO)CO)cc1 | SLC47A2 | transport, inhibitor | transiently transfected cells | 100 µM, 10 (unit not given), added: thiamine | – | inhibition | 8.8%
CC1(C)[C@H](C(=O)OCc2cccc(Oc3ccccc3)c2)[C@@H]1C=C(Cl)Cl | CES2 human cytosolic | – | – | 0.1 µM, age 6 months | – | enzyme contribution | 5.83%
CCOC(=O)c1c(CSc2ccccc2)n(C)c2cc(Br)c(O)c(CN(C)C)c12 | ABCG2 | transport, inhibitor | – | 100 µM, 5 (unit not given), pH 7, added: CCK-8 | – | inhibition | 35%
O=c1cc(-c2ccccc2)oc2c1ccc1ccccc12 | cytochrome P450 human | enzyme activity, inhibitor | pooled human liver microsomes | 120 min, pH 7.4 | – | IC50 | > 10 µM
CN1CCN(Cc2ccc(NC(=O)c3cncc(C#Cc4cnc(N)c5ncccc45)c3)cc2C(F)(F)F)CC1 | Voltage-dependent L-type calcium channel subunit alpha-1C (CACNA1C, Homo sapiens, UniProt Q13936) | L-type calcium current, inhibitor | – | – | – | IC50 | > 30 µM
CC1(C)C(C=C(Cl)Cl)C1C(=O)OC(C#N)c1ccc(F)c(Oc2ccccc2)c1 (stereo not shown) | CES2 human cytosolic | – | – | 0.1 µM, age 5 years | – | enzyme contribution | 0.31%
CCCC[C@@H]1NC(=O)[C@H](Cc2ccc(O)cc2)NC(=O)[C@@H]2CCCN2C(=O)[C@H](CC(=O)O)NC(=O)[C@H](C)NC(=O)[C@H](Cc2ccccc2)NC(=O)[C@@H]2CSCCC(=O)N3CN(CN(C3)C(=O)CCSC[C@@H](C(=O)N[C@@H](CNC(=O)CCOCCOCCOCCOCCOCCn3cc(CCC(=O)N[C@H]4CSCCC(=O)N5CN6CN(C5)C(=O)CCSC[C@H](NC(=O)[C@@H](CC(=O)O)NC(=O)[C@H](Cc5cccc7ccccc57)NC(=O)[C@@H]5CCCN5C4=O)C(=O)N[C@@H](CCSC)C(=O)N[C@@H](CCCCNC(=N)N)C(=O)N[C@@H](CC(=O)O)C(=O)N[C@@H](Cc4c[nH]c5ccccc45)C(=O)N[C@@H](CO)C(=O)N[C@@H]([C@@H](C)O)C(=O)N4CCC[C@H]4C(=O)N4C[C@H](O)C[C@H]4C(=O)N[C@@H](Cc4c[nH]c5ccccc45)C(=O)N[C@H](C(N)=O)CSCCC6=O)nn3)C(N)=O)NC1=O)C(=O)CCSC[C@H](NC(C)=O)C(=O)N[C@@H](CC(C)(C)C)C(=O)N1CCC[C@H]1C(=O)N[C@@H](CCC(=O)O)C(=O)N[C@H](C)C(=O)N1CCC[C@H]1C(=O)N[C@@H](Cc1ccc(O)cc1)C(=O)N2 | Tumor necrosis factor receptor superfamily member 9/Nectin-4 | reporter gene, agonist, luciferase reporter | CD137 Jurkat reporter with HT-1376 | 6 h, geometric mean | reference: wells without compound | Emax | 31 fold
CCC(CC)COC(=O)[C@H](C)N[P@](=O)(OC[C@H]1O[C@@](C#N)(c2ccc3c(N)ncnn23)[C@H](O)[C@@H]1O)Oc1ccccc1 | SLC47A2 | transport, inhibitor | transiently transfected cells | 100 µM, 10 (unit not given), added: thiamine | – | inhibition | 68.6%
CCCC[C@@H]1NC(=O)[C@H](Cc2ccc(O)cc2)NC(=O)[C@@H]2CCCN2C(=O)[C@H](CC(=O)O)NC(=O)[C@H](C)NC(=O)[C@H](Cc2ccccc2)NC(=O)[C@@H]2CSCCC(=O)N3CN(CN(C3)C(=O)CCSC[C@@H](C(=O)N[C@@H](C)C(N)=O)NC1=O)C(=O)CCSC[C@H](NC(C)=O)C(=O)N[C@@H](CC(C)(C)C)C(=O)N1CCC[C@H]1C(=O)N[C@@H](CCC(=O)O)C(=O)N[C@H](CCCCNC(=O)CCc1cn(CCOCCOCCCOCCOCCOCCOCCOCCOCCOCCOCCNC(=O)CCOCC(COCCC(=O)NCCOCCOCCOCCOCCOCCOCCOCCOCCOCCOCCn3cc(CCC(=O)NCCCC[C@H]4NC(=O)[C@H](CCC(=O)O)NC(=O)[C@@H]5CCCN5C(=O)[C@H](CC(C)(C)C)NC(=O)[C@@H](NC(C)=O)CSCCC(=O)N5CN6CN(C5)C(=O)CCSC[C@H](NC(=O)[C@H](Cc5ccc(O)cc5)NC(=O)[C@@H]5CCCN5C4=O)C(=O)N[C@@H](Cc4ccccc4)C(=O)N[C@@H](C)C(=O)N[C@@H](CC(=O)O)C(=O)N4CCC[C@H]4C(=O)N[C@@H](Cc4ccc(O)cc4)C(=O)N[C@@H](CCCC)C(=O)N[C@H](C(=O)N[C@@H](C)C(N)=O)CSCCC6=O)nn3)(COCCC(=O)NCCOCCOCCOCCOCCOCCOCCOCCOCCOCCOCCn3cc(CCC(=O)NCCCC[C@H]4NC(=O)[C@H](CCC(=O)O)NC(=O)[C@@H]5CCCN5C(=O)[C@H](CC(C)(C)C)NC(=O)[C@@H](NC(C)=O)CSCCC(=O)N5CN6CN(C5)C(=O)CCSC[C@H](NC(=O)[C@H](Cc5ccc(O)cc5)NC(=O)[C@@H]5CCCN5C4=O)C(=O)N[C@@H](Cc4ccccc4)C(=O)N[C@@H](C)C(=O)N[C@@H](CC(=O)O)C(=O)N4CCC[C@H]4C(=O)N[C@@H](Cc4ccc(O)cc4)C(=O)N[C@@H](CCCC)C(=O)N[C@H](C(=O)N[C@@H](C)C(N)=O)CSCCC6=O)nn3)COCCC(=O)NCCOCCOCCOCCOCCOCCOCCOCCOCCOCCOCCn3cc(CCC(=O)NCCC(=O)N[C@H]4CSCCC(=O)N5CN6CN(C5)C(=O)CCSC[C@H](NC(=O)[C@@H](CC(=O)O)NC(=O)[C@H](Cc5cccc7ccccc57)NC(=O)[C@@H]5CCCN5C4=O)C(=O)N[C@@H](CCSC)C(=O)N[C@@H](CCCCNC(=N)N)C(=O)N[C@@H](CC(=O)O)C(=O)N[C@@H](Cc4c[nH]c5ccccc45)C(=O)N[C@@H](CO)C(=O)N[C@@H]([C@@H](C)O)C(=O)N4CCC[C@H]4C(=O)N4C[C@H](O)C[C@H]4C(=O)N[C@@H](Cc4c[nH]c5ccccc45)C(=O)N[C@H](C(N)=O)CSCCC6=O)nn3)nn1)C(=O)N1CCC[C@H]1C(=O)N[C@@H](Cc1ccc(O)cc1)C(=O)N2 | Tumor necrosis factor receptor superfamily member 9/Nectin-4 | reporter gene, agonist, luciferase reporter | CD137 Jurkat reporter with HT-1376 | 6 h, geometric mean | reference: wells without compound | Emax | 51 fold
Cc1c(COC(=O)[C@@H]2[C@H](/C=C(\Cl)C(F)(F)F)C2(C)C)cccc1-c1ccccc1 (racemic) | human CYP2C8 | IVIVE from expressed enzymes | human, liver, in vivo scaled | 0.1 µM, age-specific | – | enzyme contribution to CLint | 6.91%
CCOC(=O)C1=C[C@@H](OC(CC)CC)[C@H](NC(C)=O)[C@@H](N)C1 | ABCG2 | transport, inhibitor | – | 100 µM, 5 (unit not given), pH 7, added: CCK-8 | – | inhibition | 7.2%
CCCC[C@@H]1NC(=O)[C@H](Cc2ccc(O)cc2)NC(=O)[C@@H](C)N(C)C(=O)[C@H](CC(=O)O)NC(=O)[C@H](C)NC(=O)[C@H](Cc2ccccc2)NC(=O)[C@@H]2CSCCC(=O)N3CN(CN(C3)C(=O)CCSC[C@H](NC(C)=O)C(=O)N[C@@H](CC(C)(C)C)C(=O)N3CCC[C@H]3C(=O)N[C@@H](CCC(=O)O)C(=O)N[C@H](CCCCNC(=O)CCc3cn(CCOCCOCCOCCOCCOCCC(=O)N[C@H]4CSCCC(=O)N5CN6CN(C5)C(=O)CCSC[C@H](NC(=O)[C@@H](CC(=O)O)NC(=O)[C@H](Cc5cccc7ccccc57)NC(=O)[C@@H]5CCCN5C4=O)C(=O)N[C@@H](CCSC)C(=O)N[C@@H](CCCCNC(=N)N)C(=O)N[C@@H](CC(=O)O)C(=O)N[C@@H](Cc4c[nH]c5ccccc45)C(=O)N[C@@H](CO)C(=O)N[C@@H]([C@@H](C)O)C(=O)N4CCC[C@H]4C(=O)N4C[C@H](O)C[C@H]4C(=O)N[C@@H](Cc4c[nH]c5ccccc45)C(=O)N[C@H](C(N)=O)CSCCC6=O)nn3)C(=O)N3CCC[C@H]3C(=O)N[C@@H](Cc3ccc(O)cc3)C(=O)N2)C(=O)CCSC[C@@H](C(N)=O)NC1=O | Tumor necrosis factor receptor superfamily member 9/Nectin-4 | reporter gene, agonist, luciferase reporter | CD137 Jurkat reporter with HT-1376 | 6 h, geometric mean | reference: wells without compound | Emax | 42 fold
